Measured values collected from several papers.
Parts stem from different laboratories: compare values within a part only. Substitutions count along the parent as printed.

Series 1
Target: CCNA1, cyclin fold, Cln2 fusion (human)
Method: yeast growth competition, sequencing
Sample: yeast
Setting: weak parent motif
Reference: not given
Reading: higher = stronger binding
Endpoint: normalised enrichment score
Starting sequence: BRCA2 docking peptide (human); CKKRRALDFLSRL; partner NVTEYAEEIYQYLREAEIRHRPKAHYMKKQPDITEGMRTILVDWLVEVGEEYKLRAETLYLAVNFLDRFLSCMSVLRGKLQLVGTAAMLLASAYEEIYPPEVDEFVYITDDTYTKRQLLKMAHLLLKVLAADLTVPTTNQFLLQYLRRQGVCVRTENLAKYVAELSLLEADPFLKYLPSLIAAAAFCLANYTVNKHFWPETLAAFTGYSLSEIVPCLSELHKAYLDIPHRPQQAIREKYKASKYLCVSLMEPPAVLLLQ
CAKRRALDFLSRL [K2A]: 0.157
CKKRKALDLLSRL [R5K F9L]: 0.386
CKARRALDFLSRL [K3A]: 0.126
CKKRRALDFLSAL [R12A]: 0.678
CKKRRALDFLARL [S11A]: 0.346
CKKARALDFLSRL [R4A]: 0.187
CKKRRALAFLSRL [D8A]: 0.238

Series 2
Target: RNA binding protein fox-1 homolog 2, RRM domain, GST-SBP tag (RBFOX2, Homo sapiens, UniProt O43251-10, residues 100-194)
Method: RNA Bind-n-Seq
Form: RNA
Sample: in vitro
Tested at: 365 nM
Setting: natural RNA segment, single round, ends assumed
Reference: no-protein control
Reading: higher = stronger binding
Endpoint: RBNS enrichment (R)
Target sequence (chain): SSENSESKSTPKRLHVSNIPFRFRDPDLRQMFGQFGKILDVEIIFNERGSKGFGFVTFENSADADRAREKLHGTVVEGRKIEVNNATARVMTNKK
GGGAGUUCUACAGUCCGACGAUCUAGUAGAGACCCAGCUGGCCUGGGGUCUGCUUUCCGACAUUUUGCCUCUCUCACUGGUCAUGUAUUUAUUCCAUAUUUAUAUGGUCUACUUCCUGUGGCUGGGAGCAGCAUGGAAUUCUCGGGUGCCAA: 0.283
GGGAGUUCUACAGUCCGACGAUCUCAGCCUUCUCCAAGGGAGAGCCUGGCUGGCUAACAGAGGGAGCCUGAGUCAGUCACAUCUGGCAGCUGGCAGCAAGCUCUUCAUCCCUCCACAGUGAGGAAGCUGGCAGUGGAAUUCUCGGGUGCCAA: 0.282
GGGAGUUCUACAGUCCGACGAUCGAUGAGAUGGAUCAAGGUCAAAAUGAUCCUUUAUCUACAUUUUCCAAAGAGAAUCUAAUUUUUUCAGUGGGUGAACUCAUCAUUGCUGGAACUGAAACUACAACCAAUGUUGGAAUUCUCGGGUGCCAA: 0.256
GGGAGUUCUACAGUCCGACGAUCGGCAGCAUACUGUGCCAGCCAUGCACUGUAUUAGGGAGGGGGAUGUCAACAGCCUUGGUUGAGGUGGGAAUGCAAUUGAUGGGAGCCUGCUGCUGUGUCCUUCUCUACUCUGGAAUUCUCGGGUGCCAA: 8.09
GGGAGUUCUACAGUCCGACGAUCUUUGUAUAUAAUGUCAUUUUUACGGAAACCCUUUCGGCGUGCAUAAGGAAUCACUGUGUACAAACUGGCCAAGUGCUUCUGUAGAUAACGUCAGUGGAGUAAAUAUUCGAUGGAAUUCUCGGGUGCCAA: 0.432
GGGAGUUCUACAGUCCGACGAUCACGUUUCCUGUAGUAUGUUUCUUCAUCUCAUCGCCAAGGUAGGCUUGUGUUUUUCAGUGUGUGCCUCCCCGAGCCUCAGCCCCAAGCUGAUUUCUUAUCUGGAAAUGGUAUGGAAUUCUCGGGUGCCAA: 0.469
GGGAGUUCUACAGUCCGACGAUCGGGGAGUAGGUCAGUGUCAACUAACAAGCCCUGCCAGGGGCCACUGCCGCUCCUCUGGUCACAGUCCACGCAGGCCAGCCCUGGUUUCUGGAAAGAGGCCUCCCUCCCUCUGGAAUUCUCGGGUGCCAA: 0.297
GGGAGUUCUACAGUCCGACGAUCCCGCUGGGUGGCAGAAGCCAAAAGACCUUAUUAACGAGGCUAUAUUUUUCUUAACUUGAUCUGCAAUCCAGAAUUAGACCACAAUGCACCUUUGGUGGUAUCCAUAUAGGUGGAAUUCUCGGGUGCCAA: 0.787
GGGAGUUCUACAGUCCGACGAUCCUUCCAGAUUUUCUUUGGGGGUUAGAAGGUCGGAUGUGGAGUUGACACUUGUUAGUCUCUGUGAGCCCAGGCCUGAGCUGGGGGAAAGUAGGAAGAUUUGGGCAUAUAUGUGGAAUUCUCGGGUGCCAA: 1.06
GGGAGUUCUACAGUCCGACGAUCAGUGACAGGGGCCCCAACUUAGCAUCCCUUCCCUUCCGUUAGGAAGGAGAUGACCGGAAGCAACCCCUUCACAGACACGAGCACAUCGGCAAACCCUAUGAAAGUGGAAUUGGAAUUCUCGGGUGCCAA: 0.281
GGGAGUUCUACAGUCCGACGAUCUGAUUGCUGUAGUUUCUUUCAUAGAAAGUAGCUGAUCUGAUGUAAUCUUUUACCUUUUAAACAACCAGGAUAGAGAACCUAUUGGAGUUUGCAUUGUUGAUGACAGGUUCUGGAAUUCUCGGGUGCCAA: 2.45
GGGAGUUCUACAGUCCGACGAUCGGUUAUGAGGCCUGUCAGGUCUAUGCACAGCAGGGACUCUGUCUUUGGUGAGCUUUCUCAGAGCCAUGGCUGCAGGCAUGUGAGCUGCGGGAACUUCCUCCUGAACUACCUGGAAUUCUCGGGUGCCAA: 1.1

Series 3
Target: Interferon regulatory factor 3, full length, phosphomimetic (IRF3, Homo sapiens, UniProt Q14653, residues 1-427, S386D/S396D/S398D/S402D/T404D/S405D)
Method: protein-binding microarray
Form: double-stranded DNA, one strand shown
Sample: in vitro
Tested at: 2540 nM top
Setting: 60-bp whole probe
With: salmon DNA 0.4 mg/ml
Reference: random background probes
Reading: higher = stronger binding
Endpoint: fitted relative affinity
Constant ends, left off below: GCCTAGCAC … GTCTTGATTCGCTTGACGCTGCTG
Target sequence (chain): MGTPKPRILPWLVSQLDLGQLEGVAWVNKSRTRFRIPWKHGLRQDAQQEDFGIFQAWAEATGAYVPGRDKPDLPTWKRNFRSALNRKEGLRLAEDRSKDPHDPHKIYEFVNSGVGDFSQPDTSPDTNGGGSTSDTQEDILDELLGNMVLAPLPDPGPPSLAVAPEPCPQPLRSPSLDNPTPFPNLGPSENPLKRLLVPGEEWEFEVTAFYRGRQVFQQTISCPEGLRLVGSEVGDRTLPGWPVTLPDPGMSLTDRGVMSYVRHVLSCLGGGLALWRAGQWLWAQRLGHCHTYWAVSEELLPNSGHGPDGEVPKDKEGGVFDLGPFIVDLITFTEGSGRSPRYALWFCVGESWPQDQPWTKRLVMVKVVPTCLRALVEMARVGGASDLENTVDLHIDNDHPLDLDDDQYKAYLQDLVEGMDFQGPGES
GACGGTTTCGGATTGGGGACGTGCTAG: 5.85 z-score
GACGGTATCCTACTGGTGACGTGCTAG: 2.67 z-score
TCACATTGCCTATTTTTCACTGTGCTA: 0.732 z-score
ATTGCTTCCTCTTTACTGCTGTGCTAG: 1.04 z-score
TACGGTCTCGGTATCGGGACGTGCTAG: 1.87 z-score
AACTTTTTTTAATTGAGAAGGTGCTAG: 0.805 z-score
TCATGTCTCAGAGTCCTACTGTGCTAG: 0.153 z-score
GAGGATTTCAGTATCGAGACGTGCTAG: 1.29 z-score
TCATTTACAGGTTCTCTTACTGTGCTA: 1.62 z-score
TATATTATATATTTATGTATGTGCTAG: 0.519 z-score
GACAATCTCAGTATCGAGACGTGCTAG: 0.75 z-score
CTCTCCATGTGTTTAAAGACGTGCTAG: 0.254 z-score
TTAGGTATCGGCTTCGGTTAGTGCTAG: 1.03 z-score
TTAGGTCACGGTTTCGGTTAGTGCTAG: 3.86 z-score
GACGGTTCCGGTTACGGGACGTGCTAG: 3.36 z-score
TTAGATCTAAGTTTCGATTAGTGCTAG: 2.97 z-score
TCAAAATTTTTTTTCTAACTGTGCTAG: 0.0603 z-score
GACGCTCTCCTTTTCCTGACGTGCTAG: 3.51 z-score
GACGGACTGGGATATCGGGACGTGCTA: -0.696 z-score
TTAGGACTGGACACTAGGTTAGTGCTA: -0.659 z-score
TCATGACTGGAGTCTGGAACTGTGCTA: -0.804 z-score
GACGGTATCGACTATCTGGACGTGCTA: 0.676 z-score
TTTTTTTCCTAATTGAACCCGTGCTAG: 3.86 z-score
TTCTGAACCATTTTGGTTTTGTGCTAG: 2.3 z-score
GACGGTTCCTTTTTCCTGACGTGCTAG: 6.29 z-score

Series 4
Target: Histone acetyltransferase KAT6A, winged helix 2, GST fusion (KAT6A, Homo sapiens, UniProt Q92794, residues 85-181)
Method: protein binding microarray
Form: double-stranded DNA, one strand shown
Sample: in vitro
Tested at: not given
Setting: 8-mer, flanks averaged, mean of 2 arrays, mostly near background
Reference: not given
Reading: higher = stronger binding
Endpoint: E-score
Target sequence (chain): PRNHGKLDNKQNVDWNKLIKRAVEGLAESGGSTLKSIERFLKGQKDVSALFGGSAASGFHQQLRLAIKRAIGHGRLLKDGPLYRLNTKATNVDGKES
ATGATGAC: -0.117
ACAGGCCA: 0.0171
AAAGTTCG: 0.125
AGCGGCCA: -0.193
AGATTCAC: -0.014
CCTGCGAG: 0.154
AACTGGGG: 0.0612
AGTGCCTG: 0.0586
ATCTCAGC: -0.0525
TTACCTAA: -0.0621
ACTTGATA: 0.0815
ACTTGACC: -0.0476
GAGTCATC: -0.12
AACATCAT: 0.0388
AACTCAAT: -0.0874
CTACGTCC: -0.122
CATTGGGG: -0.154
GTACTGAA: -0.015
CTTTCTCA: -0.0314
AAACCTCG: -0.0155
AATCCGTC: -0.04
CTGAATTA: -0.038
CAAATCGC: -0.0255
ATCTCGTG: -0.0719
ACAGGGCT: -0.133

Repeated from above (series 4):
AACTGGGG: 0.0612
ACTTGATA: 0.0815
CTACGTCC: -0.122
CCTGCGAG: 0.154
ATGATGAC: -0.117
ACAGGGCT: -0.133
ACTTGACC: -0.0476
AACATCAT: 0.0388
GTACTGAA: -0.015
AAAGTTCG: 0.125
CAAATCGC: -0.0255
